Published values of several laboratories.
Lines come from different studies, so protocols differ. “And” joins repeats or separate records; there may be more than shown. ± marks the error that the study gave.

CCCCCCCCCCCCCCCC(=O)N[C@@H](CCC(=O)NCCCC[C@H](NC(=O)[C@H](CC(=O)O)NC(=O)[C@H](CO)NC(=O)[C@@H](NC(=O)[C@H](Cc1ccccc1)NC(=O)[C@@H](NC(=O)CNC(=O)[C@H](CCC(N)=O)NC(=O)[C@H](C)NC(=O)[C@@H](Cc1ccc(O)cc1)NC(C)=O)[C@@H](C)O)[C@@H](C)O)C(=O)N[C@@H](CO)C(=O)N[C@@H](CCCCN)C(=O)N[C@@H](Cc1ccc(O)cc1)C(=O)N[C@@H](CC(C)C)C(=O)N[C@@H](CC(=O)O)C(=O)N[C@@H](CCC(=O)O)C(=O)N[C@@H](CCCNC(=N)N)C(=O)N[C@@H](C)C(=O)N[C@@H](C)C(=O)N[C@@H](CCC(N)=O)C(=O)N[C@@H](CC(=O)O)C(=O)N[C@@H](Cc1ccccc1)C(=O)N[C@H](C(=O)N[C@@H](CCC(N)=O)C(=O)N[C@@H](Cc1c[nH]c2ccccc12)C(=O)N[C@@H](CC(C)C)C(=O)N[C@@H](CC(C)C)C(=O)N[C@@H](CCC(=O)O)C(=O)NCC(=O)NCC(=O)N1CCC[C@H]1C(=O)N[C@@H](CO)C(=O)N[C@@H](CO)C(=O)NCC(=O)N[C@@H](C)C(=O)N1CCC[C@H]1C(=O)N1CCC[C@H]1C(=O)N1CCC[C@H]1C(=O)N[C@@H](CO)C(N)=O)C(C)C)C(=O)O
AUC(0-last) (cynomolgus monkey, plasma; intravenous, 0.0031 mg/kg): 428 to 501 ng·h/mL

CC(=O)NCCCC[C@@H]1NC(=O)[C@H](Cc2c[nH]c3c(C)cccc23)NC(=O)[C@H]([C@@H](C)O)NC(=O)[C@H](CC(N)=O)NC(=O)[C@@H](NC(C)=O)C(C)(C)SSC(C)(C)[C@@H](C(=O)N[C@@H](Cc2ccc(OCCN)cc2)C(=O)N[C@@H](Cc2ccc3ccccc3c2)C(=O)NC2(C(=O)N[C@@H](CCC(=O)O)C(=O)N[C@@H](CC(N)=O)C(=O)N[C@@H](Cc3cccnc3)C(=O)N(C)CC(N)=O)CCOCC2)NC1=O
CL/F (human; oral, 100 mg multiple dose, day 10): 9740 ± 5000 L/h

CCN(CC)CCOc1ccc(-c2nnn(Cc3ccc(OC)cc3)c2N)cc1
remaining compound (monkey hepatocytes; concentration not given, time not given): 54.6%

N#[11C]c1ccc(-c2csc(NN=C3CCCC3)n2)cc1
radioactivity uptake (C57BL/6 mice, male, brain; intravenous, 3 MBq, 60 min): 0.31 ± 0.09 %ID/g

Cn1nc(NS(C)(=O)=O)c2c(Cl)ccc(-n3c([C@H](Cc4cc(F)cc(F)c4)NC(=O)Cn4nc(C(F)F)c5c4C(F)(F)[C@@H]4C[C@H]54)nc4nc(OCCC(F)(F)F)ccc4c3=O)c21
half-life (human, plasma; oral, 625 mg single dose, powder in bottle, geometric mean): 66.3 h

CC(C)N1CCCCC1C(=O)NC(Cc1ccc(-c2ccccc2)cc1)B(O)O (centres unmarked)
AUC(0-t) (male Sprague-Dawley rats, plasma; oral, 1 mg/kg, 24 h, citrate ester): 1.64 µM·h

CC(CCC(=O)NCC(=O)O)C1CCC2C3CCC4CC(OC5OC(C(=O)O)C(O)C(O)C5O)CCC4(C)C3CC(O)C12C (centres unmarked)
plasma concentration (human women; dose not given, SLCO1B1 *14/*14): 9.13 ng/mL

CCCCCCCCCCCCCCCC(=O)N[C@@H](CCC(=O)NCCOCCOCCC(=O)NCCOCCOCCC(=O)NCCCC[C@H](NC(=O)[C@H](CC(=O)O)NC(=O)[C@H](CC(C)C)NC(=O)[C@H](Cc1ccc(O)cc1)NC(=O)[C@H](CCCCN)NC(=O)[C@H](CO)NC(=O)[C@H](Cc1ccc(O)cc1)NC(=O)[C@H](CC(=O)O)NC(=O)[C@H](CO)NC(=O)[C@@H](NC(=O)[C@H](Cc1ccccc1)NC(=O)[C@@H](NC(=O)CNC(=O)[C@H](CCC(N)=O)NC(=O)[C@@H](CO)NC(=O)[C@@H](N)Cc1c[nH]cn1)[C@@H](C)O)[C@@H](C)O)C(=O)N[C@@H](CCCNC(=N)N)C(=O)N[C@@H](CCCNC(=N)N)C(=O)N[C@@H](C)C(=O)N[C@@H](CCC(N)=O)C(=O)N[C@@H](CC(=O)O)C(=O)N[C@@H](Cc1ccccc1)C(=O)N[C@H](C(=O)N[C@@H](CCC(N)=O)C(=O)N[C@@H](Cc1c[nH]c2ccccc12)C(=O)N[C@@H](CC(C)C)C(=O)N[C@@H](CC(C)C)C(=O)N[C@@H](CC(N)=O)C(=O)N[C@H](C(=O)NCC(=O)NCC(=O)N1CCC[C@H]1C(=O)N[C@@H](CO)C(=O)N[C@@H](CO)C(=O)NCC(=O)N[C@@H](C)C(=O)N1CCC[C@H]1C(=O)N1CCC[C@H]1C(=O)N1CCC[C@H]1C(=O)N[C@@H](CO)C(N)=O)[C@@H](C)O)C(C)C)C(=O)O
serum enzyme activity (item: ALT; Sprague-Dawley rat, male; subcutaneous, 500 µg/kg once daily, 14 days): 42.2 ± 8.8 U/L

O=C1NC2(CC2)COc2ncc(F)cc2[C@H]2COCCN2c2ccn3ncc1c3n2
organ-to-brain weight ratio (Sprague-Dawley rat, female, uterus; oral, 20 mg/kg/day, 4 weeks, end of treatment): 25.8 ± 5.68%

CC[C@H](C)[C@H](NC(=O)[C@H](CCCCN)NC(=O)CNC(=O)[C@@H](NC(=O)[C@H](Cc1c[nH]cn1)NC(=O)[C@H](Cc1c[nH]cn1)NC(=O)[C@@H](NC(=O)CNC(=O)[C@H](Cc1c[nH]cn1)NC(=O)[C@H](Cc1ccccc1)NC(=O)[C@H](CC(C)C)NC(=O)[C@H](CC(C)C)NC(=O)[C@H](CCCNC(=N)N)NC(=O)[C@H](Cc1ccccc1)NC(=O)[C@@H](N)Cc1ccccc1)C(C)C)C(C)C)C(=O)N[C@@H](CCCCN)C(=O)N1CCC[C@H]1C(=O)N[C@@H](CCCNC(=N)N)C(=O)N[C@@H](C)C(N)=O
chronic toxic concentration (zebrafish embryos 4 hpf, E3 medium; 24 h): 5 µM

COC(=O)[C@H]1[C@@H](c2ccc(Cl)c(Cl)c2)C[C@@H]2CC[C@H]1N2Cc1ccc2cc3ccccc3cc2c1
pKa (fluorometric titration; 1 µM, 10% DMSO): 5.7

CCCC[C@H]1C(=O)N(C)[C@@H](CCCC)C(=O)N[C@@H](CCCNC(=O)CN2CCN(CC(=O)O)CCN(CC(=O)O)CCN(CC(=O)O)CC2)C(=O)N[C@H](C(=O)NCC(N)=O)CSCC(=O)N[C@@H](Cc2ccc(O)cc2)C(=O)N(C)[C@@H](C)C(=O)N[C@@H](CC(N)=O)C(=O)N2CCC[C@H]2C(=O)N[C@@H](Cc2c[nH]cn2)C(=O)N[C@@H](CC(C)C)C(=O)N(C)CC(=O)N[C@@H](Cc2c[nH]c3ccccc23)C(=O)N[C@@H](CO)C(=O)N[C@@H](Cc2c[nH]c3ccccc23)C(=O)N1C [gallium-68 labelled]
tissue uptake (NOD/SCID mice with CHO-hPD-L1 xenograft, skin; 30 min post injection): 4 ± 0.62 %ID/g

CN[C@H](CC(C)C)C(=O)N[C@H]1C(=O)N[C@@H](CC(N)=O)C(=O)N[C@H]2C(=O)N[C@H]3C(=O)N[C@H](C(=O)N[C@H](C(=O)O)c4cc(O)cc(O)c4-c4cc3ccc4O)[C@H](O)c3ccc(c(Cl)c3)Oc3cc2cc(c3O[C@@H]2O[C@H](CO)[C@@H](O)[C@H](O)[C@H]2O[C@H]2C[C@](C)(NCc3ccc(-c4ccc(Cl)cc4)cc3)[C@H](O)[C@H](C)O2)Oc2ccc(cc2Cl)[C@H]1O
clearance (mouse, plasma; intravenous, 10 mg/kg): 1.23 mL/min/kg

CN1Cc2cc(Cl)ccc2-n2c(nnc2C2CCN(c3cccc([18F])n3)CC2)C1
total volume of distribution (PET two-tissue compartment model; rhesus monkey, occipital cortex; intravenous, dose not given, 90 min scan, baseline scan): 1.05 ± 0.42 mL/cm3

CC[C@H](C)[C@H](NC(=O)[C@H](CCCCN)NC(=O)CNC(=O)[C@H](CC(C)C)NC(=O)[C@H](Cc1ccccc1)NC(=O)[C@H](CCCCN)NC(=O)[C@H](CO)NC(=O)[C@H](Cc1ccccc1)NC(=O)[C@H](Cc1c[nH]c2ccccc12)NC(=O)[C@H](CCC(N)=O)NC(=O)[C@@H](NC(=O)[C@H](Cc1ccccc1)NC(=O)CCCCCNC(=O)CN1CCN(CC(=O)O)CCN(CC(=O)O)CCN(CC(=O)O)CC1)C(C)C)C(=O)N[C@@H](CCC(=O)O)C(=O)N1CCC[C@H]1C(=O)N[C@@H](CC(=O)O)C(=O)N[C@H](C(=O)N[C@@H](CO)C(=O)N[C@@H](CCC(N)=O)C(=O)N[C@H](C(=O)N[C@@H](CCC(N)=O)C(=O)N[C@@H](CC(=O)O)C(=O)N1CCC[C@H]1C(=O)N[C@@H](CC(N)=O)C(=O)N[C@@H](CC(=O)O)C(=O)N[C@@H](CCC(N)=O)C(=O)N[C@@H](Cc1ccc(O)cc1)C(=O)N[C@@H](CCC(=O)O)C(=O)N1CCC[C@H]1C(=O)N[C@@H](Cc1ccccc1)C(=O)O)C(C)C)C(C)C [copper-64 labelled]
SUVmean (dynamic PET; mouse, CT26 tumour, checkpoint inhibitor-treated, tumour; intravenous, 100 µCi/mouse, 1170 s): 3.82 SUV

COc1cnc2cccc(N3CCc4c(cc(Cn5ccnc5)cc4-c4cn(C)nc4C(F)(F)F)C3=O)c2c1
body weight change (CD-1 mouse; intraperitoneal, 100 mg/kg once daily, day 4, dose-escalation tolerability; reference: day 1): 8.3%

CSCC[C@H](N)C(=O)N[C@@H](C)C(=O)N[C@@H](Cc1c[nH]c2ccccc12)C(=O)N[C@@H](Cc1c[nH]cn1)C(=O)N[C@@H](CC(=O)O)C(=O)N[C@@H](CC(=O)O)C(=O)N[C@@H](CCC(=O)O)C(=O)N[C@@H](CCC(=O)O)C(=O)N[C@@H](Cc1ccccc1)C(=O)N[C@@H](C)C(=O)N[C@@H](CCCNC(=N)N)C(=O)N[C@@H](CCCNC(=N)N)C(=O)N[C@@H](CCCNC(=N)N)C(=O)N[C@@H](CCCNC(=N)N)C(=O)NCCCCCC(=O)NCCCCC(NC(=O)CCCCCNC(=O)[C@H](CCCNC(=N)N)NC(=O)[C@H](CCCNC(=N)N)NC(=O)[C@H](CCCNC(=N)N)NC(=O)[C@H](CCCNC(=N)N)NC(=O)[C@H](C)NC(=O)[C@H](Cc1ccccc1)NC(=O)[C@H](CCC(=O)O)NC(=O)[C@H](CCC(=O)O)NC(=O)[C@H](CC(=O)O)NC(=O)[C@H](CC(=O)O)NC(=O)[C@H](Cc1c[nH]cn1)NC(=O)[C@H](Cc1c[nH]c2ccccc12)NC(=O)[C@H](C)NC(=O)[C@@H](N)CCSC)C(=O)NCCCCC(NC(=O)C(CCCCNC(=O)CCCCCNC(=O)[C@H](CCCNC(=N)N)NC(=O)[C@H](CCCNC(=N)N)NC(=O)[C@H](CCCNC(=N)N)NC(=O)[C@H](CCCNC(=N)N)NC(=O)[C@H](C)NC(=O)[C@H](Cc1ccccc1)NC(=O)[C@H](CCC(=O)O)NC(=O)[C@H](CCC(=O)O)NC(=O)[C@H](CC(=O)O)NC(=O)[C@H](CC(=O)O)NC(=O)[C@H](Cc1c[nH]cn1)NC(=O)[C@H](Cc1c[nH]c2ccccc12)NC(=O)[C@H](C)NC(=O)[C@@H](N)CCSC)NC(=O)CCCCCNC(=O)[C@H](CCCNC(=N)N)NC(=O)[C@H](CCCNC(=N)N)NC(=O)[C@H](CCCNC(=N)N)NC(=O)[C@H](CCCNC(=N)N)NC(=O)[C@H](C)NC(=O)[C@H](Cc1ccccc1)NC(=O)[C@H](CCC(=O)O)NC(=O)[C@H](CCC(=O)O)NC(=O)[C@H](CC(=O)O)NC(=O)[C@H](CC(=O)O)NC(=O)[C@H](Cc1c[nH]cn1)NC(=O)[C@H](Cc1c[nH]c2ccccc12)NC(=O)[C@H](C)NC(=O)[C@@H](N)CCSC)C(N)=O (some centres unmarked)
tissue distribution (C57BL/6 mouse female, femur; dose not given, 3 h; reference: total): 0.97% and 1.74% and 2.07%

For quick reference, copied from above:
COc1cnc2cccc(N3CCc4c(cc(Cn5ccnc5)cc4-c4cn(C)nc4C(F)(F)F)C3=O)c2c1
body weight change (CD-1 mouse; intraperitoneal, 100 mg/kg once daily, day 4, dose-escalation tolerability; reference: day 1): 8.3%
